Published values of several laboratories.
Every numbered part comes from another study and shows a few of its results, in no order. Changes are numbered by the printed parent chain.

Block 1
Target: BATF3, bZIP domain (human)
Method: DHFR protein complementation
Sample: yeast
Notes: single substitutions, most at no-binding floor
Baseline: wild-type JUN-FOS pair
Reading: higher = stronger binding
Starting sequence: JUN, bZIP domain (human); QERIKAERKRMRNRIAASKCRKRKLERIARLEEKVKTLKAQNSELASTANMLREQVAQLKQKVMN; partner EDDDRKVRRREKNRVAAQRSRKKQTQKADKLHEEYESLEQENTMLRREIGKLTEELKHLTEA
Change	binding fitness [natural log]
L31V	0.21
Q41R	0.201
L52E	-1.03
A40I	0.219
A49T	0.0436
A40N	0.194
A40E	0.219
S43P	-0.0847
L52F	-0.133
V56L	0.113
Q55M	0.0703

Block 2
Target: Interferon regulatory factor 5, full length, phosphomimetic (IRF5, Homo sapiens, UniProt Q13568-2, residues 1-514, S451D/S453D/S456D/S462D)
Method: protein-binding microarray
Molecule type: double-stranded DNA, one strand shown
Sample: in vitro
Concentration: 940 nM top
Notes: 60-bp whole probe
Added: salmon DNA 0.4 mg/ml
Baseline: random background probes
Reading: higher = stronger binding
Constant ends, left off below: GCCTAGCAC … GTCTTGATTCGCTTGACGCTGCTG
Strand	fitted relative affinity [z-score]
TTAGGACTGGGGTATCAGTTAGTGCTA	0.242
TCATGAATGCCCTTCCATACTGTGCTA	0.21
TTTGGTCTCCTTTTCCTTTAGTGCTAG	1.68
TTAGGTTTCGGTTTAGGTTAGTGCTAG	16.2
TCAGATTTCAATTAGAAACTGTGCTAG	0.409
TACGATATCGGGACTGGAGACGTGCTA	-0.316
TCATTTCTCTGCTACCCTACTGTGCTA	1.93
GAGAGTAGCTTTCTGAGGGCGTGCTAG	0.746
TCATTTTTTGGAATGTCACTGTGCTAG	0.381
TTAGAACTGGGGACTTGATTAGTGCTA	-0.0827
TTTCGTTACTTCCTCAAACAGTGCTAG	10.5
GACGGACTCCTACTGCTGACGTGCTAG	-0.322
TCATAGATGCCTTTCTCACTGTGCTAG	0.256
TCATTTCTCATTCGTCATACTGTGCTA	2.58
GTTAGAATGTCCTTTCTCCATGTGCTA	-0.204
ATAGGTATCGGGTTTCGGTTAGTGCTA	7.87
TTAGGTATCGGGACTGGATTAGTGCTA	4.03
GAAGATTTCAATTAGAAAAAGTGCTAG	-0.171
TTTGCTTTCCTGATGGTCTTGTGCTAG	0.236

Block 3
Target: CCND2, cyclin fold, Cln2 fusion (human)
Method: yeast growth competition, sequencing
Sample: yeast
Notes: weak parent motif
Baseline: not given
Reading: higher = stronger binding
Starting sequence: BORA docking peptide (human); SSLRRKLFLDGNG; partner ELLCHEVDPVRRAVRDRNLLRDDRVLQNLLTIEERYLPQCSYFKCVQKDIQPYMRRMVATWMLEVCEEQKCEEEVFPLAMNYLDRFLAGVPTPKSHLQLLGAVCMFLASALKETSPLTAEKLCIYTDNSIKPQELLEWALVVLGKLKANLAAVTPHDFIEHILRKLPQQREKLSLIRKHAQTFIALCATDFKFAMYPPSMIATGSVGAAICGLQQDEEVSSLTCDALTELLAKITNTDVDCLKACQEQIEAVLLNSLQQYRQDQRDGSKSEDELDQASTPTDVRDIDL
Change	normalised enrichment score
SSLRRKLLLDGNG [F8L]	-0.34
SSLRRKLFLDGAG [N12A]	0.211
SSLRRKAFLDGNG [L7A]	0.0101
SSLRRKLALDGNG [F8A]	0.324
SSLRRKLFFDGNG [L9F]	-0.215
ASLRRKLFLDGNG [S1A]	0.141
SSLRRKLFLDGNA [G13A]	-0.111
SALRRKLFLDGNG [S2A]	0.245

Block 4
Target: Histone acetyltransferase KAT6A, both winged helices, GST fusion (KAT6A, Homo sapiens, UniProt Q92794, residues 1-181)
Method: protein binding microarray
Molecule type: double-stranded DNA, one strand shown
Sample: in vitro
Concentration: not given
Notes: 8-mer, flanks averaged, mean of 2 arrays, mostly near background
Baseline: not given
Reading: higher = stronger binding
Residues (chain): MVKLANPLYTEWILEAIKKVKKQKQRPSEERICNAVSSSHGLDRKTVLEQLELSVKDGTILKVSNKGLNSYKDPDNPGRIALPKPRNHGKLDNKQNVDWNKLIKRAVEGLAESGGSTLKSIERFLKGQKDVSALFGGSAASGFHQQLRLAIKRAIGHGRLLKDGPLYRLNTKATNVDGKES
Strand	E-score
CGACCCTC	-0.156
CCAGACGG	0.0976
CAGTAGTA	-0.142
ACACTAGG	-0.0643
CAAGTAGC	-0.26
CAGGGGCA	-0.223
GTTACAAA	-0.0474
TCAGTACA	-0.173
GCTCAGGA	-0.015
ACCTGTGG	-0.168
GCGAGCGC	0.295
CTCTTTGC	-0.0982
CAGCACAA	-0.0758
AATCTGTA	-0.124
CGTACTAC	0.157
AGTAAGAA	-0.0449
GGACTAAA	0.0502
AGCTCGTC	-0.0755
GCCCATTA	-0.0655
CGGGCCTC	0.188
CAGGTGAC	-0.0398
CGGGTCAC	0.194
AAACCCCT	-0.107
ATAGTAAC	-0.0598
AATCTACG	0.141

Block 5
Target: RNA binding protein fox-1 homolog 2, RRM domain, GST-SBP tag (RBFOX2, Homo sapiens, UniProt O43251-10, residues 100-194)
Method: RNA Bind-n-Seq
Molecule type: RNA
Sample: in vitro
Concentration: 365 nM
Notes: natural RNA segment, single round, ends assumed
Baseline: no-protein control
Reading: higher = stronger binding
Constant ends, left off below: GGGAGUUCUACAGUCCGACGAUC … UGGAAUUCUCGGGUGCCAA
Target sequence (chain): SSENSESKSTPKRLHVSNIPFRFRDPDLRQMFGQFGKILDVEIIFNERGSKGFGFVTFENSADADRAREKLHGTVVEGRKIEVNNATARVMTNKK
Strand	RBNS enrichment (R)
UUUACAUGAAUCUUUAAACAAUUCUGUGAGCAAAGUUUGUAGCUGCUGGAUUAUUGUCUGUCUUUAUAGCAAGUUCCAGUAAACCACAAGUAUGGCAAAGCUUAUCCAAU	0.277
UAAAUUUUACUCAAUUAUUUUACAAACCAAAUUGAGUUAUUCAAACACAAGCCAGUAUUCUGUGAACAAGUUCCAGAUGAAAAACACAGAAGUUGUGAAUGAAGUUGUAG	0.54
UUAAGAUUAUGUAUUUGCUACAAAGUAUUGUACUUGUCUCAAUGGGAAUGGUGUUAAAAAAGAAAAAAAGACAGAAAAGGCCUUAUGUGAUAUGUAUCAUAGUUAAUAAA	0.815
UUAACUGUGAAUUCACCCCUCCUCCUCCACUGCAUAUUUAAAGCAUGUGUUCACACUGUGUGUAAACAUUCACUGAAGAUUUUUUCUUUGUGCAUUGCUGACUGUUCAAA	0.982
AAUGAAAUAACUGCAACUAGAGAAAAAAAACUGUAUAAAAACAUUAAAUUGUCAGUAUUUUUGUAAGAUUCCGUUUUGUAAAGAGAAUAAUAUUCAAACACUUUUGUGGC	0.618
GGAGUGGGGACAGUGGACAGAGCAUACCUGGUGGCAGGUUGGGAGGGGCCACUCAGCGUCCCCCCCAUUUCUCAGAAAAUCUCCAGUCCCACCCAGGGACCCCACCCUGG	0.204
AAGGAAGUAUCGAAUUUACAUUAGUUUUUUUCAUACCCUUUUGAACUUUGCAACUUCCGUAAUUAGGAACCUGUUUCUUACAGCUUUUCUAUGCUAAACUUUGUUCUGUU	0.402
GCAGUGGGGUAGAUCUCAUGAGGUUACCUACAGCUACUUCAUGUUCUUACACUGUAAGCCUUGUUGCUUUGCCCCAACAAUUGUAAUUUGAUUAUAGCUAUGAGCCUUAU	0.365

Further values, each from its own experiment
Substance	target	assay	test system	conditions	scale	measurement	result
PhoQ, residues 284 288 289 292 302 303 ALAMYF	PhoP, residues 12 14 15 18 19 LQHIR (Escherichia coli, UniProt P23836)	Sort-seq, item: YFP reporter	E. coli	PhoQ-PhoP variant library, added: 10 µM Mg2+	baseline: high Mg2+ state, higher = stronger signaling	fold induction	30.8
